Results collected from several papers.
Lines come from different studies, so protocols differ. “And” joins repeats or separate records; there may be more than shown. ± gives the spread as reported.
B1: cytidine deaminase; sequence looked up; chain MAQKRPACTLKPECVQQLLVCSQEAKKSAYCPYSHFPVGAALLTQEGRIFKGCNIENACYPLGICAERTAIQKAVSEGYKDFRAIAIASDMQDDFISPCGACRQVMREFGTNWPVYMTKPDGTYIVMTVQELLPSSFGPEDLQKTQ
B2: corneodesmosin; sequence looked up; chain KSIGTFSDPCKDPTRITSPNDPCLTGKGDSSGFSSYSGSSSSGSSISSARSSGGGSSGSSSGSSIAQGGSAGSFKPGTGYSQVSYSSGSGSSLQGASGSSQLGSSSSHSGNSGSHSGSSSSHSSSSSSFQFSSSSFQVGNGSALPTNDNSYRGILNPSQPGQSSSSSQTFGVSSSGQSVSSNQRPCSSDIPDSPCSGGPIVSHSGPYIPSSHSVSGGQRPVVVVVDQHGSGAPGVVQGPPCSNGGLPGKPCPPITSVDKSYGGYEVVGGSSDSYLVPGMTYSKGKIYPVGYFTKENPVKGSPGVPSFAAGPPISEGKYFSSNPIIPSQSAASSAIAFQPVGTGGVQLCGGGSTGSKGPCSPSSSRVPSSSSISSSSGLPYHPCGSASQSPCSPPGTGSFSSSSSSQSSGKIILQPCGSKSSSSGHPCMSVSSLTLTGGPDGSPHPDPSAGAKPCGSSSAGKIPCRSIRDILAQVKPLGPQLADPEVFLPQGELLNSP
B3: CDK4; sequence looked up; chain ATSRYEPVAEIGVGAYGTVYKARDPHSGHFVALKSVRVPNGGGGGGGLPISTVREVALLRRLEAFEHPNVVRLMDVCATSRTDREIKVTLVFEHVDQDLRTYLDKAPPPGLPAETIKDLMRQFLRGLDFLHANCIVHRDLKPENILVTSGGTVKLADFGLARIYSYQMALTPVVVTLWYRAPEVLLQSTYATPVDMWSVGCIFAEMFRRKPLFCGNSEADQLGKIFDLIGLPPEDDWPRDVSLPRGAFPPRGPRPVQSVVPEMEESGAQLLLEMLTFNPHKRISAFRALQHSYLHKDEGNPE
B4: ABCF1 protein; sequence looked up; chain MPKAPKQQPPEPEWIGDGESTSPSDKVVKKGKKDKKIKKTFFEELAVEDKQAGEEEKVLKEKEQQQQQQQQQQKKKRDTRKGRRKKDVDDDGEEKELMERLKKLSVPTSDEEDEVPAPKPRGGKKTKGGNVFAALIQDQSEEEEEEEKHPPKPAKPEKNRINKAVSEEQQPALKGKKGKEEKSKGKAKPQNKFAALDNEEEDKEEEIIKEKEPPKQGKEKAKKAEQGSEEEGEGEEEEEEGGESKADDPYAHLSKKEKKKLKKQMEYERQVASLKAANAAENDFSVSQAEMSSRQAMLENASDIKLEKFSISAHGKELFVNADLYIVAGRRYGLVGPNGKGKTTLLKHIANRALSIPPNIDVLLCEQEVVADETPAVQAVLRADTKRLKLLEEERRLQGQLEQGDDTAAERLEKVYEELRATGAAAAEAKARRILAGLGFDPEMQNRPTQKFSGGWRMRVSLARALFMEPTLLMLDEPTNHLDLNAVIWLNNYLQGWRKTLLIVSHDQGFLDDVCTDIIHLDAQRLHYYRGNYMTFKKMYQQKQKELLKQYEKQEKKLKELKAGGKSTKQAEKQTKEALTRKQQKCRRKNQDEESQEAPELLKRPKEYTVRFTFPDPPPLSPPVLGLHGVTFGYQGQKPLFKNLDFGIDMDSRICIVGPNGVGKSTLLLLLTGKLTPTHGEMRKNHRLKIGFFNQQYAEQLRMEETPTEYLQRGFNLPYQDARKCLGRFGLESHAHTIQICKLSGGQKARVVFAELACREPDVLILDEPTNNLDIESIDALGEAINEYKGAVIVVSHDARLITETNCQLWVVEEQSVSQIDGDFEDYKREVLEALGEVMVSRPRE
B5: DDX1; sequence looked up; chain MAAFSEMGVMPEIAQAVEEMDWLLPTDIQAESIPLILGGGDVLMAAETGSGKTGAFSIPVIQIVYETLKDQQEGKKGKTTIKTGASVLNKWQMNPYDRGSAFAIGSDGLCCQSREVKEWHGCRATKGLMKGKHYYEVSCHDQGLCRVGWSTMQASLDLGTDKFGFGFGGTGKKSHNKQFDNYGEEFTMHDTIGCYLDIDKGHVKFSKNGKDLGLAFEIPPHMKNQALFPACVLKNAELKFNFGEEEFKFPPKDGFVALSKAPDGYIVKSQHSGNAQVTQTKFLPNAPKALIVEPSRELAEQTLNNIKQFKKYIDNPKLRELLIIGGVAARDQLSVLENGVDIVVGTPGRLDDLVSTGKLNLSQVRFLVLDEADGLLSQGYSDFINRMHNQIPQVTSDGKRLQVIVCSATLHSFDVKKLSEKIMHFPTWVDLKGEDSVPDTVHHVVVPVNPKTDRLWERLGKSHIRTDDVHAKDNTRPGANSPEMWSEAIKILKGEYAVRAIKEHKMDQAIIFCRTKIDCDNLEQYFIQQGGGPDKKGHQFSCVCLHGDRKPHERKQNLERFKKGDVRFLICTDVAARGIDIHGVPYVINVTLPDEKQNYVHRIGRVGRAERMGLAISLVATEKEKVWYHVCSSRGKGCYNTRLKEDGGCTIWYNEMQLLSEIEEHLNCTISQVEPDIKVPVDEFDGKVTYGQKRAAGGGSYKGHVDILAPTVQELAALEKEAQTSFLHLGYLPNQLFRTF
B6: EEF1A1; sequence looked up; chain GKEKTHINIVVIGHVDSGKSTTTGHLIYKCGGIDKRTIEKFEKEAAEMGKGSFKYAWVLDKLKAERERGITIDISLWKFETSKYYVTIIDAPGHRDFIKNMITGTSQADCAVLIVAAGVGEFEAGISKNGQTREHALLAYTLGVKQLIVGVNKMDSTEPPYSQKRYEEIVKEVSTYIKKIGYNPDTVAFVPISGWNGDNMLEPSANMPWFKGWKVTRKDGNASGTTLLEALDCILPPTRPTDKPLRLPLQDVYKIGGIGTVPVGRVETGVLKPGMVVTFAPVNVTTEVKSVEMHHEALSEALPGDNVGFNVKNVSVKDVRRGNVAGDSKNDPPMEAAGFTAQVIILNHPGQISAGYAPVLDCHTAHIACKFAELKEKIDRRSGKKLEDGPKFLKSGDAAIVDMVPGKPMCVESFSDYPPLGRFAVRDMRQTVAVGVIKAVDKKAAGAGKVTKSAQKAQKAK

The fold change of `insulin human` is reported as 1.24 (refers to: KALRN mRNA; uninfected mouse, brain; i.p., dose not given; reference: PBS).
`B1 (cytidine deaminase)` — result for “log2 fold change”: -0.361 (peptide binding, SILAC pull-down; concentration not given; reference: non-acetylated over acetylated NIT1 peptide).
The metabolic activity of `caspofungin` is reported as 100% (Aspergillus fumigatus; Alamar blue; 0.2 µg/mL).
For `oseltamivir carboxylate`, the EC50 was over 100 µM (Influenza A virus H3N2; cytopathic effect, MTS; MDCK).
`GWTLNSAGYLLGPHAVDNHRSFNDKHGFT-NH2 (C-amide)` gave a mRNA level of 1.8 and 1.48 and 2.47 and 1.79 and 2.06 (RT-qPCR, refers to: Tgfb1; peptide, mouse, DSS-induced colitis, colon; ip, 3 µM, 3% DSS, unit not given; reference: Gapdh).
For `VPGFQALSE`, the IC50 was over 20 µM (Mamu-B*08301 MHC class I; peptide binding; peptide, Chinese rhesus macaque).
For `cisplatin`, the IC50 was 7.5 ± 2 µM (MDA-MB-231).
`QLGIPHPAG` gave an IC50 of over 20 µM (Mamu-A1*02601 MHC class I; peptide binding; peptide, Chinese rhesus macaque).
Under “log2 fold change”, `B2 (corneodesmosin)` is recorded as 0.172 (peptide binding, SILAC pull-down; concentration not given; reference: non-acetylated over acetylated NIT1 peptide).
`KINLTAPGG` has an IC50 of over 20 µM (Mamu-A1*02601 MHC class I; peptide binding; peptide, Chinese rhesus macaque).
For `YMLDLQPEV`, the specific lysis was 27.8% (Ca-Ski (HLA-A2+ HPV+); 111In release; peptide; concentration not given, 16 h, E:T 25:1 IVS 5, together with: peptide-generated T-cell line).
`hexaarginine` has a kon of 3.21e+07 ± 3e+06 M⁻¹ s⁻¹ (PorA peptide pore; peptide binding, planar bilayer single-channel recording; 0.5 µM, pH 7.4, -10 mV, cis side, 150 mM KCl).
`KISEYRHYC` gave a specific lysis of 7% (HN-4 (HLA-A2+ HPV+); 111In release; peptide; concentration not given, 16 h, E:T 25:1 IVS 5, together with: peptide-generated T-cell line).
`colistin`: “CFU relative to caspofungin alone” 4.22 and 3.69 (Aspergillus fumigatus; conidia; 2.5 µM, together with: caspofungin 0.2 µg/mL; reference: caspofungin alone).
With `VYGIYCTLY` the IC50 was over 20 µM (Mamu-B*08301 MHC class I; peptide binding; peptide, Chinese rhesus macaque).
`BIRC6`: “log2 fold change” 8.14 (peptide binding, SILAC pull-down; concentration not given; reference: non-acetylated over acetylated NIT1 peptide).
For `pertussis toxin`, the distance travelled was 20 m and 30 m and 18 m and 23 m and 22 m (open field test; humanized mice, subarachnoid haemorrhage; dose not given).
`aspterric acid` gave an inhibition of 69.5% (hypocotyl length; Arabidopsis thaliana Col-0 seeds; 6.25 µg/mL).
Under “log2 fold change”, `B3 (CDK4)` is recorded as 1.98 (peptide binding, SILAC pull-down; concentration not given; reference: non-acetylated over acetylated NIT1 peptide).
`(−)-antroquinonol A` has an IC50 of over 25 µM (H441; cytotoxicity, MTS; 72 h).
Under “log2 fold change”, `B4 (ABCF1 protein)` is recorded as -1.98 (peptide binding, SILAC pull-down; concentration not given; reference: non-acetylated over acetylated NIT1 peptide).
`GWTLNSAGYLLGPRRIDHLLMIKEMPIARGREEAPGA / YAVDNHRSFNDKHGFT-NH2 (C-amide)` has a colon length of 7 cm and 6.8 cm and 6.5 cm and 7.1 cm (mouse, DSS-induced colitis; ip, 1.5 µM).
With `nonaarginine` the koff was 11.1 ± 1 s⁻¹ (PorA peptide pore; peptide binding, planar bilayer single-channel recording; 0.5 µM, pH 7.4, -10 mV, cis side, 150 mM KCl).
`B5 (DDX1)`: “log2 fold change” 0.584 (peptide binding, SILAC pull-down; concentration not given; reference: non-acetylated over acetylated NIT1 peptide).
For `QQYNKPLCDL`, the IFN-γ release was 338 pg/mL (HPV16 E6-specific T-cell line; ELISA; peptide, supernatant; concentration not given, 24 h, together with: peptide-pulsed autologous B cells).
Under “log2 fold change”, `B6 (EEF1A1)` is recorded as 0.731 (peptide binding, SILAC pull-down; concentration not given; reference: non-acetylated over acetylated NIT1 peptide).
With `buprenorphine` the IC50 was 35 µM (HeLa; cytotoxicity).
`mastoparan` — result for “concentration causing morphological change”: 10 to 20 µM (Swiss 3T3 quiescent).
`ASGVQVADEVCR (destrin)`: “log2 fold change” -0.274 (peptide binding, SILAC pull-down; concentration not given; reference: non-acetylated over acetylated NIT1 peptide).
`VRRRRVSRFGRGRGY` has a bacterial killing of 92.5% (Vibrio harveyi; bacterial survival, plate count; peptide; 20 µM, 4 h, room temperature; reference: untreated control).

Excerpt of the above:
With `nonaarginine` the koff was 11.1 ± 1 s⁻¹ (PorA peptide pore; peptide binding, planar bilayer single-channel recording; 0.5 µM, pH 7.4, -10 mV, cis side, 150 mM KCl).
`KISEYRHYC` gave a specific lysis of 7% (HN-4 (HLA-A2+ HPV+); 111In release; peptide; concentration not given, 16 h, E:T 25:1 IVS 5, together with: peptide-generated T-cell line).
`KINLTAPGG` has an IC50 of over 20 µM (Mamu-A1*02601 MHC class I; peptide binding; peptide, Chinese rhesus macaque).
`(−)-antroquinonol A` has an IC50 of over 25 µM (H441; cytotoxicity, MTS; 72 h).
